Measurements gathered from unrelated publications.
A part holds a random share of what one study measured. Positions count from the first letter of the parent shown.

Sample 1
Target: Sal-like protein 4, full length isoform A (SALL4, Homo sapiens, UniProt Q9UJQ4, residues 1-1053)
Sequence of UniProt Q9UJQ4 (whole entry, looked up): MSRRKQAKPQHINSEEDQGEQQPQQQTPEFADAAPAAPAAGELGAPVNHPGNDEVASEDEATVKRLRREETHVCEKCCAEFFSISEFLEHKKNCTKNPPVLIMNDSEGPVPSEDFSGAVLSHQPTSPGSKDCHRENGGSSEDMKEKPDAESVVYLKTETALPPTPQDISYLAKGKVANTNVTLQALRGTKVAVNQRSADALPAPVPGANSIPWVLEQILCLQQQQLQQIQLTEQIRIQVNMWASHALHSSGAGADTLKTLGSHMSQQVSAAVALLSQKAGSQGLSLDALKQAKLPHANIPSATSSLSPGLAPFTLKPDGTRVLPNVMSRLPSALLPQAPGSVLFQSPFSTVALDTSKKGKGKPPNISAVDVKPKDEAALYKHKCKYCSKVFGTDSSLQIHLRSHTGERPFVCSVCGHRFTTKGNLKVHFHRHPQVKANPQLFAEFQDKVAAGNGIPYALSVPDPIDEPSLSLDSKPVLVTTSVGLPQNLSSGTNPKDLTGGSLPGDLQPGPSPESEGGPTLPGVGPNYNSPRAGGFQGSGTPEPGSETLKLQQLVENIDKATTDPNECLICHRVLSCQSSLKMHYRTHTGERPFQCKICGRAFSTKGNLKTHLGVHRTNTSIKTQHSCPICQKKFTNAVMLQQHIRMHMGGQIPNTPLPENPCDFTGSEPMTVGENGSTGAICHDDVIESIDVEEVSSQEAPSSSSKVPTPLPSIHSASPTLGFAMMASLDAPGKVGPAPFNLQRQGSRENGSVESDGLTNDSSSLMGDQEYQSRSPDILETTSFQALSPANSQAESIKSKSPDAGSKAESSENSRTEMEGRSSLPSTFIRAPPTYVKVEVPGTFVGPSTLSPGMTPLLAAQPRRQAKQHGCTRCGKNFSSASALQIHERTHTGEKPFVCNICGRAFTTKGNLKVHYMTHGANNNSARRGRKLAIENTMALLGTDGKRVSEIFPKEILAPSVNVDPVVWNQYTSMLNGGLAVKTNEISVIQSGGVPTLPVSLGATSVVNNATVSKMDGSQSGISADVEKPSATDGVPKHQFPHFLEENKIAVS
Technique: universal PBM
Form: double-stranded DNA, one strand shown
Matrix: in vitro
Concentration: 600 nM
Setting: 8-mer, flanks averaged, mean of replicates
Direction: higher = stronger binding
| Sequence | E-score |
| --- | --- |
| CTATGAGA | 0.103 |
| ATCCCAGG | -0.162 |
| TCTAGAGA | 0.00739 |
| ACGATCCC | -0.225 |
| CAATGCTC | 0.0718 |
| GGGGATGA | -0.24 |
| GTTTCTGA | -0.0364 |
| AAATTTGG | 0.113 |
| GTCAAGTA | 0.0165 |
| GACATTTA | 0.175 |
| AGGCAGAG | -0.00668 |
| CAAGAGGC | -0.183 |
| AATGGACC | 0.0238 |
| CAGCGACC | -0.379 |
| CACCGATA | 0.0983 |
| ACAGTGTA | 0.0889 |
| ACACAAGT | 0.0967 |
| GTCTTAAC | 0.0176 |
| GGGTAAAA | 0.111 |
| CATCAAAC | 0.0874 |
| GGGCAAAC | -0.206 |
| ACGCAGTG | -0.264 |
| ATGTTGAC | 0.191 |
| CCTACCGA | -0.036 |
| CGTCTCAC | -0.251 |

Sample 2
Target: RNA binding protein fox-1 homolog 2, RRM domain, GST-SBP tag (RBFOX2, Homo sapiens, UniProt O43251-10, residues 100-194)
Technique: RNA Bind-n-Seq
Form: RNA
Matrix: in vitro
Concentration: 365 nM
Setting: natural RNA segment, single round, ends assumed
Baseline: no-protein control
Direction: higher = stronger binding
Constant ends, left off below: GGGAGUUCUACAGUCCGACGAUC … UGGAAUUCUCGGGUGCCAA
| Sequence | RBNS enrichment (R) |
| --- | --- |
| CACAGCACUUUUGAUAUCAAGCAAGUGGCUUCCUUUUUGAGAUAUUAAAAAAAAAAAGAAAAGGAAAAAAGUAAAUGAAGCCCAACUACCUAACCCUUUCUUAUUUGUAU | 1.47 |
| GUACUACAAGUCCUUAGAGAAAGCUAACUGCUGAGCUGGGCACUCUGCCUGGGACGCAUGGCUGAGUAACAGAGGGGACCACGCAGCCACCGACAGCCCUUCUCUGCGGU | 1.45 |
| CUCUGAUAGGAUCGUGUCCUUCAGUCAAGAGCUCAUGUGAACUCCAGACUUUAUAUUACAUCUCUGAAGUUCUUGAUGUGGGGAAGAUUGACUUUUAUUCCAUUUUUAUA | 0.518 |
| UAUCUCAUUAUUUUGAAAGAUUUAUAUAAUGAACUCUGGCUAUCUGACAAUAAAAUGGAUGAAAAAGAAGCAGCUGUUGACGUUGACUCUGUCCCCCAUGAAGCCUCCUG | 0.476 |
| AAAAUUUGUCCCCGAUUUUACCUUUGUCUUUCUGUGUACUUUUCAAAGAGUCCUAAGGAGUUAAAUCUUCCAGGUAUUUUCCACUUAGUAUUGCAGCCAAAGAAUAUUUA | 0.495 |
| UCUCCCCAUGGCCUCUUCCCCACCUCUGAUUGCUGGUUGUGGCCCCAUAGCUCAUCACCCCUGUCUCCUGCUGAAUGUGCAGGGCUGAUGUGGCACUGAGGAGCUGACUU | 0.864 |
| CCGGCUCUGCUUCCCCAGGAUCUUUGGGUGGUGCUAUCUCCUGCCUCUUGGAGCUCCUGGCGCUCCCCACCCGGUGUCCCCAGUGGAAGGGAUGGGGUGAAGCCCAGAGU | 0.535 |
| CUGAGGUCAUGCGGUUGGACACUGAACUUGGUAAAGACGUCCUUCCCCAAGGAAGCCAUAAUGUGCAGAUGAACUGACCGAAGGAAAAGCUUGAGACAGCUUCCUGCGGG | 0.382 |

Sample 3
Target: CCNE1, cyclin fold, Cln2 fusion (human)
Technique: yeast growth competition, sequencing
Matrix: yeast
Setting: weak parent motif
Baseline: not given
Direction: higher = stronger binding
Parent: WEE1 docking peptide (human); HKTFRKLRLFDTP
| Variant | normalised enrichment score |
| --- | --- |
| D11K | 0.485 |
| R5W | 0.989 |
| K6E | 0.438 |
| F4L | 0.915 |
| R5K L9F | -0.134 |
| P13G | -0.287 |
| L9V | 0.516 |
| F10D | -0.178 |
| H1A | -0.226 |
| D11Y | 0.294 |
| L9Y | 1.16 |
| K2N | 1.26 |
| F10Y | -0.0954 |
| L7E | 0.827 |

Sample 4
Target: Prothrombin, mature alpha-thrombin (F2, Homo sapiens, UniProt P00734)
Technique: aptamer microarray, sandwich
Form: DNA with 2'F-ANA
Matrix: in vitro
Concentration: 200 nM
Setting: whole 15-mer aptamer, many near background
With: Cy3 exosite-II aptamer, 400 nM
Direction: higher = stronger binding
Sequence: GGTTGGTGTGGTTGG
| Modification | mean fluorescence intensity [a.u.] |
| --- | --- |
| 2'F-ANA at 4 5 6 7 8 9 11 13 14 15 | 44.3 |
| 2'F-ANA at 4 7 9 10 12 13 14 15 | 73.3 |
| 2'F-ANA at 1 2 3 5 7 9 10 11 12 13 | 66.3 |
| 2'F-ANA at 3 5 9 10 12 13 14 15 | 52.4 |
| 2'F-ANA at 3 4 6 7 14 15 | 286 |
| 2'F-ANA at 2 3 5 7 8 10 11 13 14 15 | 50.3 |
| 2'F-ANA at 1 4 5 8 9 13 14 | 45.3 |
| 2'F-ANA at 6 9 14 15 | 161 |
| 2'F-ANA at 2 3 4 5 9 12 15 | 175 |
| 2'F-ANA at 1 2 6 7 9 14 | 65.4 |
| 2'F-ANA at 1 7 8 9 11 | 190 |
| 2'F-ANA at 1 7 9 12 14 15 | 74.3 |
| 2'F-ANA at 1 2 4 5 6 9 12 13 14 15 | 46.8 |
| 2'F-ANA at 1 2 3 4 8 9 11 | 165 |
| 2'F-ANA at 6 7 8 9 10 12 | 209 |
| 2'F-ANA at 1 4 5 6 7 8 9 11 12 13 14 15 | 48.3 |
| 2'F-ANA at 2 4 5 8 10 | 102 |
| 2'F-ANA at 1 2 5 7 8 11 12 14 15 | 53.3 |
| 2'F-ANA at 1 2 3 4 5 6 7 9 10 11 13 | 53.4 |
| 2'F-ANA at 2 3 7 10 11 12 13 14 15 | 255 |
